# Measurements pooled from the literature.
# Compare with care: the assays were run in different laboratories. Values joined by “and” are separate records of one study, mostly repeats; a detail may differ. ± marks the error that the study gave.
# Trypanothione synthetase: Trypanothione synthetase (Trypanosoma brucei brucei, UniProt Q8IEX1)
# Alpha-amylase: Alpha-amylase (Bos taurus, UniProt Q3MHH8)
# FFAR4: Free fatty acid receptor 4 (FFAR4, Homo sapiens, UniProt Q5NUL3)
SMILES,target,assay,system,conditions,scale,inhibition
NCCNC(=O)CN1C(=O)Cc2c([nH]c3ccc(Br)cc23)-c2ccc(Cl)cc21,Trypanothione synthetase,"enzyme activity, inhibitor, BIOMOL Green",,30 µM,,27.3 ± 5.9%
O=C(Nc1cccc2c(=O)cc(-c3nnn[nH]3)oc12)c1ccc(OCCCCc2ccccc2)cc1,"Volume-regulated anion channel subunit LRRC8C, part LRRC8A IL1 chimera (LRRC8C, Homo sapiens, UniProt Q8TDW0, Y126F)","ion current, inhibitor, whole-cell patch clamp",HCT LRRC8-/- cells,"10 µM, -100 mV",,83.2% and 85.3% and 74.4% and 74.6%
CCN1CCN(Cc2ccc(NC(=O)c3ccc(C)c(/C=C/c4cnc5[nH]ccc5c4OC)c3)cc2C(F)(F)F)CC1,"Serine/threonine-protein kinase/endoribonuclease IRE1 (ERN1, Homo sapiens, UniProt O75460)",,A-375,5 µM,,-26.4%
CC1=NNC(=S)NC(=O)C1/N=N/c1ccc(S(N)(=O)=O)cc1 (stereo not shown),Alpha-amylase,"enzyme activity, inhibitor, glucose oxidase",,"500 µg/mL, together with: dextrin",,19.6%
C=C1C(=O)O[C@@H]2[C@H]3O[C@]3(C)CC/C=C(\C)CC[C@@H]12,"Ubiquitin carboxyl-terminal hydrolase 51 (USP51, Homo sapiens, UniProt Q70EK9)","deubiquitinase activity, inhibitor",,"5 µM, 1 h preincubation, together with: 250 nM Ub-AMC",,27%
CN1CCN(c2cc(-c3ccncc3)c(-c3ccc4ccccc4c3)nn2)CC1,"PTH2R (Homo sapiens, UniProt P49190)","antagonist, FLIPR",,10 µM,,55.1%
O=C(CN1C(=O)Cc2c([nH]c3ccc(Br)cc23)-c2ccc(Cl)cc21)NC1=NCCS1,Trypanothione synthetase,"enzyme activity, inhibitor, BIOMOL Green",,30 µM,,41.3 ± 5.6%
CSCCCNc1cc(=O)[nH]c(=O)[nH]1,FFAR4,"antagonist, β-arrestin recruitment",CHO cells,10 µM,,25 ± 10%
O=C(NO)c1ccc(CN2CCCCc3ccccc32)c(F)c1,benzodiazepine site rat brain,radioligand binding,,10 µM,,18.1%
Cc1nn(-c2nc3c(F)cc(F)cc3s2)c(O)c1C(c1cccc(C(F)(F)F)c1)c1c(C)nn(-c2nc3c(F)cc(F)cc3s2)c1O,"Cyclic GMP-AMP synthase, catalytic domain; with DNA (CGAS, Homo sapiens, UniProt Q8N884)","cGAS phase separation, inhibitor",,6.25 µM,,47.6%
CCCNc1cc(=O)[nH]c(=O)[nH]1,FFAR4,"antagonist, β-arrestin recruitment",CHO cells,10 µM,,21 ± 3%
O=C(C[C@@H](C(F)F)n1ccc(F)n1)N1CCC(O)(Cn2cnc3c(cnn3-c3ccc(F)cc3)c2=O)CC1,"Ubiquitin carboxyl-terminal hydrolase 7 (USP7, Homo sapiens, UniProt Q93009, V517F)","enzyme activity, inhibitor",,0.005 µM,,9.71% and 9.05%
CC[C@@H]1[C@H](F)C(=O)N[C@@H]1COc1nccc2cc(C(N)=O)c(OC)cc12,"Calcium/calmodulin-dependent protein kinase kinase 2 (CAMKK2, Homo sapiens, UniProt Q96RR4)","ATP-site probe binding, ActivX profiling",THP-1 cell lysate,"0.2 mM, Lys1 site",,-5.9%
CC1=NN(c2ccc(C)cc2)C(=O)C1=NNc1ccc(S(N)(=O)=O)cc1,Alpha-amylase,"enzyme activity, inhibitor, glucose oxidase",,"100 µg/mL, together with: dextrin",,25.5%
CC(C)(C)OC(=O)NCCCCNC(=O)CN1C(=O)Cc2c([nH]c3ccc(Br)cc23)-c2ccc(Cl)cc21,Trypanothione synthetase,"enzyme activity, inhibitor, BIOMOL Green",,30 µM,,27.9 ± 4.6%
CC(C)(C)CCNc1cc(=O)[nH]c(=O)[nH]1,FFAR4,"antagonist, β-arrestin recruitment",CHO cells,10 µM,,18 ± 5%
COc1ccc(F)cc1C(=O)NCc1ccc(-c2nn([C@@H](C)C(F)(F)F)c(N)c2C(N)=O)cc1,"STE20/SPS1-related proline-alanine-rich protein kinase (STK39, Homo sapiens, UniProt Q9UEW8)","target engagement, competitive chemoproteomics",human PBMCs,0.01 µM,,34%
OCCCN1CC[C@@H]2C[C@H]1c1cc(-c3ccc(C(F)(F)F)cc3)ccc12,"Histamine H1 receptor (HRH1, Homo sapiens, UniProt P35367)","radioligand binding, PDSP competition binding",,10 µM,,< 50%
CC1=NN(c2cccc([N+](=O)[O-])c2)C(=O)C1=NNc1ccc(S(N)(=O)=O)cc1,Alpha-amylase,"enzyme activity, inhibitor, glucose oxidase",,"500 µg/mL, together with: dextrin",,12.9%
Cn1cc(-c2cnc3ccc(NC(=O)Nc4ccc(F)c(Br)c4)cc3n2)cn1,"Mitogen-activated protein kinase kinase kinase 12 (MAP3K12, Homo sapiens, UniProt Q12852)","kinase binding, KiNativ profiling, measured: Lys2 peptide",PANC-1 lysate,10 µM,,1.4%
Cc1cc(-c2ccnc3[nH]cc(F)c23)cc(F)c1[C@@]1(O)[C@H](C)CN(C2CCS(=O)(=O)CC2)C[C@@H]1C,"Rho-associated protein kinase 1 (ROCK1, Homo sapiens, UniProt Q13464)","ATP probe binding, KiNativ",HEK293T cell lysate,1 µM,,1%
Cc1ccc(C(=O)Nc2ccc3ccccc3c2)o1,"Voltage-gated hydrogen channel 1 (HVCN1, Homo sapiens, UniProt Q96D96)","ion current, inhibitor, whole-cell patch clamp",,10 µM,,12.1% and 9.52% and 0.7% and 4.83% and 7.22%
CC(C)CCNc1cc(=O)[nH]c(=O)[nH]1,FFAR4,"antagonist, β-arrestin recruitment",CHO cells,10 µM,,24 ± 8%
O=C(O[C@@H]1COC(=O)c2cc(O)c(O)c(O)c2-c2c(cc(O)c(O)c2O)C(=O)O[C@H]1[C@@H]1OC(=O)c2cc(O)c(O)c(O)c2-c2c(O)c(O)c(O)c3c2C(=O)O[C@H]1[C@@H]3O)c1cc(O)c(O)c(O)c1,hyaluronidase (bovine testes),enzyme activity,,200 µg/mL,,32.7 ± 1.9%
CC1=NN(c2ccccc2)C(=O)C1=NNc1ccc(S(N)(=O)=O)cc1,Alpha-amylase,"enzyme activity, inhibitor, glucose oxidase",,"50 µg/mL, together with: dextrin",,22.8%
CCc1ccc(OCc2nnc(SCc3nc(CC(C)C)no3)n2Cc2ccccc2)cc1,"C-X-C chemokine receptor type 4 (CXCR4, Homo sapiens, UniProt P61073)","arrestin recruitment, antagonist, DiscoverX arrestin",,30 µM,relative to: control,0.06% and -0.47%
O=c1cc(NCCCc2ccccc2)[nH]c(=O)[nH]1,FFAR4,"antagonist, β-arrestin recruitment",CHO cells,"10 µM, together with: 4 µM TUG-891",,14 ± 16%
CC1=NOC(=O)C1=NNc1ccc(S(N)(=O)=O)cc1,Alpha-amylase,"enzyme activity, inhibitor, glucose oxidase",,"10 µg/mL, together with: dextrin",,5.7582 ± 0.00107%
CCCCCCCCCNc1cc(=O)[nH]c(=O)[nH]1,FFAR4,"antagonist, β-arrestin recruitment",CHO cells,"10 µM, together with: 4 µM TUG-891",,26 ± 2%
[2H]c1cc(C)c(NC(=O)c2cnc(Nc3cc(N4CCCCC4)nc(C)n3)s2)c(Cl)c1,"Myosin light chain kinase 2, skeletal/cardiac muscle (MYLK2, Homo sapiens, UniProt Q9H1R3)",,,0.01 µM,,< 30%
O=c1cc(NCCCCc2ccccc2)[nH]c(=O)[nH]1,FFAR4,"antagonist, β-arrestin recruitment",CHO cells,10 µM,,21 ± 3%
CC1=NNC(=O)C1=NNc1ccc(S(N)(=O)=O)cc1,Alpha-amylase,"enzyme activity, inhibitor, glucose oxidase",,"100 µg/mL, together with: dextrin",,13.6%
O=c1cc(NCCc2ccc(Br)cc2)[nH]c(=O)[nH]1,FFAR4,"antagonist, β-arrestin recruitment",CHO cells,10 µM,,17 ± 3%
CN(C(=O)n1cnc(-c2ccc[n+]([O-])c2)c1)C1CCCCC1,"Amine oxidase [flavin-containing] B (Maob, Rattus norvegicus, UniProt P19643)",,,10 µM,,2.47%

# A few entries again:
SMILES,target,assay,system,conditions,scale,inhibition
CC[C@@H]1[C@H](F)C(=O)N[C@@H]1COc1nccc2cc(C(N)=O)c(OC)cc12,"Calcium/calmodulin-dependent protein kinase kinase 2 (CAMKK2, Homo sapiens, UniProt Q96RR4)","ATP-site probe binding, ActivX profiling",THP-1 cell lysate,"0.2 mM, Lys1 site",,-5.9%
OCCCN1CC[C@@H]2C[C@H]1c1cc(-c3ccc(C(F)(F)F)cc3)ccc12,"Histamine H1 receptor (HRH1, Homo sapiens, UniProt P35367)","radioligand binding, PDSP competition binding",,10 µM,,< 50%
CCCCCCCCCNc1cc(=O)[nH]c(=O)[nH]1,FFAR4,"antagonist, β-arrestin recruitment",CHO cells,"10 µM, together with: 4 µM TUG-891",,26 ± 2%
[2H]c1cc(C)c(NC(=O)c2cnc(Nc3cc(N4CCCCC4)nc(C)n3)s2)c(Cl)c1,"Myosin light chain kinase 2, skeletal/cardiac muscle (MYLK2, Homo sapiens, UniProt Q9H1R3)",,,0.01 µM,,< 30%
CC(C)(C)CCNc1cc(=O)[nH]c(=O)[nH]1,FFAR4,"antagonist, β-arrestin recruitment",CHO cells,10 µM,,18 ± 5%
